Measurements pooled from the literature.
Each line is one published result; not all experiments were run side by side. Values joined by “and” are separate records of one study, mostly repeats; a detail may differ. Numbers after ± are the reported error.

For `C=CCn1c(=O)c2cnc(Nc3ccc(N4CCN(C)CC4)cc3)nc2n1-c1ccc2c(n1)[C@@](O)(CC)CC2`, “S phase cells” read 18.8% (NCI-H1048; flow cytometry; concentration not given).
For `COc1cc2ncnc(Nc3ccc(Oc4ccccc4)cc3C)c2cc1OC`, the viability was 96.2% (A-375; 1 µM, 72 h).
With `CCc1c(-c2ccccc2)c(-c2ccccc2)nn1-c1ccccc1-c1cccc(OCC(=O)O)c1` the normalized response was 61.4% and 53.1% and 52.2% and 56.2% and 61.8% and 60.3% (mouse bone marrow macrophages; osteoclast differentiation, inhibitor, TRAP staining; 1 µM, together with: M-CSF and RANKL).
`Cc1occc(=O)c1O`: “reversal of trafficking deficit” -9.62% (primary rat hippocampal/cortical neuron-glia cultures; 1 µM, together with: 1 µM α-synuclein oligomers).
The EC50 of `CCn1cc(-c2cc(Cn3ccoc3=N)cc3c2CCN([C@@H](C)c2cc(OC)ccn2)C3=O)c(C(F)(F)F)n1` is reported as 1.31 µM (BXPC-3; cell growth, inhibitor; 120 h).
Under “Bliss synergy score”, `COc1cc2ncnc(Nc3ccc(Oc4ccccc4)c(C)c3C)c2cc1OC.Cl` is recorded as -174% (SK-MEL-2 (NRAS Q61R); resazurin; concentration not given, 72 h, together with: trametinib; direction not given).
`Cn1cc(Nc2nccc(-c3ccc4c(c3)CN(C3COC3)CC[C@H]4NC(=O)c3cn(C(C)(C)C)nn3)n2)cn1`: “pathway activation z-score” 2.06 (mouse splenic B cells; item: mTOR signalling; 30 mg/kg, IgD-activated in vivo; reference: vehicle, direction not given).
`COc1ccc(NC(=S)N/N=C/c2cccc3cc4ccccc4nc23)cc1` gave a necrotic cells of 8.23% (HeLa; annexin V/PI flow cytometry; IC50, 48 h, annexin V-negative PI-positive).
`CC(=O)c1c(C)c2cnc(Nc3ccc(N4CCNCC4)cn3)nc2n(C2CCCC2)c1=O` has an IC50 of 1.97 µM (HD-MB03; cell growth; 168 h, single agent).
`Nc1nc(N)c2nc(CNc3ccc(C(=O)NCCc4ccccc4)cc3)cnc2n1` gave a mitochondrial toxicity of 12.7 ± 4.86% (786-O; high-content imaging, item: MitoTracker Red uptake; 10 µM).
For `O=C(O)COCC(=O)O`, the IC50 was 8440 µM (hepatocytes, iPSC-derived, W2 line; cell viability, RealTime-Glo MT; 72 h, differentiation day 23).
For `Cc1c(-c2c(-c3ccc(F)o3)sc3ncnc(O[C@H](Cc4ccccc4OCc4ccnn4CC(F)(F)F)C(=O)O)c23)ccc(OCCN2CCN(C)CC2)c1Cl`, the IC50 was 0.916 µM (HD-MB03; cell growth; single agent).
For `NC(=O)NO`, “concentration of maximum effect” read 200 µM (mouse CD4 T cells triple reporter; flow cytometry, item: IFNγ-YFP; six days).
`CCCCc1nc(Cl)c(CO)n1Cc1ccc(-c2ccccc2-c2nn[nH]n2)cc1`: “log2 fold change” -2.6 (human PBMC; RNA-seq, item: CPED1 mRNA; 10 µg/mL, 24 h; reference: untreated control).
`Cc1nc(NC(=O)N2CCC[C@H]2C(N)=O)sc1-c1ccnc(C(C)(C)C(F)(F)F)c1`: “Hill coefficient GR curve” 0.702 (NCI-H460; cell growth, CellTiter-Glo; 120 h).
`CC(=O)O[C@@H]1CC[C@@]2(C)[C@@H](CC[C@]3(C)[C@@H]2C(=O)C=C2[C@@H]4[C@@H](C)[C@H](C)CC[C@]4(C)CC[C@]23C)[C@@]1(C)C(=O)O` — result for “mRNA level increase”: 2.48 (RAW264.7; qRT-PCR, item: IL-10; concentration not given, unit not given, together with: LPS; reference: LPS alone).
`CC(C)NCC(O)c1ccc(O)c(O)c1` (stereo not shown) gave a sarcomere length of 1.59 µm (mouse ventricular cardiomyocytes; dose not given, 0.155 s).
`Cc1cnc(NC2CCOCC2)nc1-n1cnc(C(=O)NC(CN)c2cc(F)cc(Cl)c2)c1` (stereo not shown) has a sub-G0 cells of 0% (A-375; flow cytometry; 1 µM, 24 h).
For `Cc1cccc(-c2[nH]c(CNc3ccccc3F)nc2-c2ccc3ncnn3c2)n1`, the apoptotic cells was 6.46% and 5.21% and 9.58% and 12.1% (patient CD138+ cells; flow cytometry, item: annexin V and PI; 1 µM, autologous CD8+ T-cell co-culture).
`Cn1cc(-c2ccc(-c3cncc(Cl)c3N3CCC4(CCNC4=O)CC3)cc2)cn1` — result for “log2 fold change”: 1.46 (COLO 205; gene expression, microarray, item: CLU mRNA; concentration not given, 2 h; reference: untreated cells).
`Cc1c(C(=O)O)ccc2c3n(nc12)[C@@H]1[C@H](C3)N(CC2CC2)[C@@]2(C(=O)Nc3cc(Cl)ccc32)[C@H]1c1cccc(Cl)c1F` has a GI50 of 0.00194 µM (RKO; cell growth, alamarBlue; unbound).
`C=Cc1c2[n-]c(c1C)/C=c1\[n-]/c(c(C)c1C=C)=C\c1[n-]c(c(CCC(=O)O)c1C)/C=c1\[n-]c(c(C)c1CCC(=O)O)=C2.[Sn+4]` gave a fold change of 2.4 (SH-SY5Y; RNA-seq, item: CCN1 mRNA; 5 µM, 5 h; reference: untreated cells).
Under “change in reporter signal”, `CC(=O)c1n[nH]c2ccc(-c3cnc4ccc(N(C)C5CCOCC5)nn34)cc12` is recorded as 19 ± 3% (Fluc expressing cells; concentration not given, counter-screen).
For `O=C1c2ccncc2C(=O)c2c1[nH]c1ccccc21`, “Bak and Smac/Diablo protein levels” read “increased” (pulmonary arterial smooth muscle cells, PAH patient; increased; concentration not given).
`COc1ccc(-n2nc(C(C)=O)s/c2=N\N=C(/C)c2ccc(NC(=O)c3ccccc3)cc2)cc1` has a toxicity of 97.5% (MCF7; 5 µM).
`CNC[C@H](O)c1cccc(O)c1` has a Ca2+ mobilisation of 2.06 ± 0.54 (COS-7, untransfected; 500 µM, relative to vehicle, unit not given; reference: 3 µM ionomycin response).
For `CC/C(=N\NC(=O)NCc1cccc(O)c1)c1ccc(O)c(C)c1O`, “LATS protein level” read 0.6 ± 0.13 (SK-OV-3; Western blot; 3D culture in gellan gum; 10 µM, 24 h, unit not given; reference: β-actin).
`O=C(/C=C/C=C/C=C/C1CCCCC1)NC1=C[C@@](O)(/C=C/C=C/C=C/C(=O)NC2=C(O)CCC2=O)[C@@H]2O[C@@H]2C1=O` has a GI50 of 20.1 µM (BXPC-3; cell growth, CellTiter-Glo; 78 h).
`O=C(C[C@@H](C(F)F)n1ccc(F)n1)N1CCC(O)(Cn2cnc3c(cnn3-c3ccc(F)cc3)c2=O)CC1`: “apoptotic cells (early plus late)” 23.2% and 24.4% and 25.3% (CHP-212 parental (wild-type USP7); annexin V-PI flow cytometry; 0.1 µM, 48 h).
`CCOc1ccc(-c2nc3cc(-c4nc5cc(N6CCN(C)CC6)ccc5[nH]4)ccc3[nH]2)cc1OCC` gave a growth percent of 20.8% (SN12C; SRB; 10 µM, 48 h).
For `CC(C)(c1ccc(O)cc1)c1ccc(O)cc1`, “G2 phase cells” read 13.7 ± 1.95% (HepG2 spheroids; Hoechst flow cytometry; 10 µM, 96 h).
`COc1cnc2cccc(N3CCc4c(cc(Cn5ccnc5C)cc4-c4cn(C)nc4C(F)(F)F)C3=O)c2c1` gave an EC50 of 3.2 µM (NCI-H2030; cell growth, inhibitor; 120 h).
`O=C(c1ccc2[nH]ccc2c1)N1CCN(S(=O)(=O)c2ccc3[nH]c(=O)oc3c2)CC1`: “6-thio-dGTP in DNA” 2890 a.u. (HL-60; NUDT15 inhibitor, mass spectrometry; 10 µM, 16 h, together with: 6-thioguanine 1 µM; higher = more incorporation).
Under “log2 fold change”, `Cc1cc(Nc2ncc(Cl)c(Nc3ccccc3S(=O)(=O)C(C)C)n2)c(OC(C)C)cc1C1CCNCC1` is recorded as -2.35 (CLB-GE; phosphoproteomics LC-MS/MS, item: FNBP1L phosphorylation; 200 nM, 60 min; reference: untreated).
The IC50 of `CC(C)c1c2cc(-c3ccnc(NC4CCC(NC5CCOCC5)CC4)n3)ccc2nn1C` (stereo not shown) is reported as 0.153 µM (HD-MB03; cell growth; DMSO).
The cell growth of `Cc1cc(C)n(-c2nc(-c3ccc(Cl)cc3)c3c(NC(=O)c4ccccc4)nnc-3[nH]2)n1` is reported as 92.4% (SN12C; SRB; 10 µM, NCI60 single-dose screen; reference: untreated).
`CCNc1nc(Nc2cc(F)c(C(=O)N3CCOCC3)cc2OC)ncc1C(F)(F)F` — result for IC50: “inactive” (HD-MB03; 168 h).
`CCn1cc(-c2cc(Cn3ccnc3)cc3c2CCN([C@H](c2cc(OC)ccn2)C2CC2)C3=O)c(C(F)(F)F)n1` gave an EC50 of 14.9 µM (HGC-27; cell growth, inhibitor; 120 h).
For `CC(=O)Nc1cccc(-n2c(=O)n(C3CC3)c(=O)c3c(Nc4ccc(I)cc4F)n(C)c(=O)c(C)c32)c1`, the IC50 was 0.0171 µM (HD-MB03; cell growth; 168 h, DMSO).
`Cc1onc(-c2ccccc2)c1-c1ccc(S(N)(=O)=O)cc1`: “reversal of trafficking deficit” -16.6% (primary rat hippocampal/cortical neuron-glia cultures; 1 µM, together with: 1 µM α-synuclein oligomers).
With `Nc1cc(C(F)(F)F)c(-c2nc(N3CCOCC3)nc(N3CCOCC3)n2)cn1` the IC50 was 0.967 µM (HD-MB03; cell growth; 168 h, single agent).
For `Clc1nc(NCc2ccco2)c2[nH]cnc2n1`, the ΔPSI was -0.278 (FD iPSC-derived cardiomyocytes; alternative splicing, RNA-seq, item: DMKN exon chr19(-):35508204-35508240; unit not given; reference: DMSO minus compound).
For `O=C1[C@H](Cc2ccc(O)cc2)N2C(=O)CCN(C(=O)NCc3ccccc3)[C@H]2CN1Cc1cccc2ccccc12`, the IC50 was 0.655 µM (HD-MB03; cell growth; single agent).
`Nc1ncnc2c1ncn2[C@@H]1O[C@H](CO)[C@@H](O)[C@H]1O` has a TNF production of 3560 a.u. and 3810 a.u. and 3710 a.u. (activated human T cells; 1 µM; higher = more TNF).
The IC50 of `COc1cc(Br)c(Nc2nc(-c3c(C)nc4ncccn34)cs2)c(Br)c1` is reported as 0.986 µM (HD-MB03; cell growth; DMSO).
`c1ccc2[nH]ccc2c1`: “mRNA level, LS mean” 192 counts per million (HCT-8; RNA-seq, item: DDIT4; concentration not given).

A few entries again:
Under “change in reporter signal”, `CC(=O)c1n[nH]c2ccc(-c3cnc4ccc(N(C)C5CCOCC5)nn34)cc12` is recorded as 19 ± 3% (Fluc expressing cells; concentration not given, counter-screen).
For `O=C1c2ccncc2C(=O)c2c1[nH]c1ccccc21`, “Bak and Smac/Diablo protein levels” read “increased” (pulmonary arterial smooth muscle cells, PAH patient; increased; concentration not given).
`COc1ccc(-n2nc(C(C)=O)s/c2=N\N=C(/C)c2ccc(NC(=O)c3ccccc3)cc2)cc1` has a toxicity of 97.5% (MCF7; 5 µM).
`CNC[C@H](O)c1cccc(O)c1` has a Ca2+ mobilisation of 2.06 ± 0.54 (COS-7, untransfected; 500 µM, relative to vehicle, unit not given; reference: 3 µM ionomycin response).
For `CC/C(=N\NC(=O)NCc1cccc(O)c1)c1ccc(O)c(C)c1O`, “LATS protein level” read 0.6 ± 0.13 (SK-OV-3; Western blot; 3D culture in gellan gum; 10 µM, 24 h, unit not given; reference: β-actin).
